Experimental data of several laboratories.
Each line is one published result; not all experiments were run side by side. Numbers after ± are the reported error.

`C[C@]12CC[C@@H]3c4ccc(O)cc4CC[C@H]3[C@@H]1C[C@@H](O)[C@@H]2O` — result for “maximum serum concentration”: 0.0166 ng/mL (GC-MS; breast cancer women on NSAI, serum; vaginal, 0.03 mg daily, 2 h, day 28).
`CNCc1ccc(-c2cc(-c3nc(-c4ccc(S(=O)(=O)C(C)C)cc4)cnc3N)on2)cc1` has a CL of 43.6 mL/min/kg (mouse BALB/c female, plasma; intravenous, 2.0 mg/kg, from AUC(0-360)).
`COc1ccc(C(=O)CSc2nc(C)cc(C)c2C#N)cc1` has a microsomal CLint of 438 µL/min/mg (metabolic stability; human, liver microsomes; 0.5 µM, pH 7.4).
`CC[C@@H]1CN(C(=O)NCC(F)(F)F)C[C@@H]1c1cnc2cnc3[nH]ccc3n12` gave a renal clearance of 57 mL/min (human, mild renal impairment, urine and plasma; oral, 15 mg single dose, extended release, fasted, arithmetic mean).
For `CN[C@H](CC(C)C)C(=O)N[C@H]1C(=O)N[C@@H](CC(N)=O)C(=O)N[C@H]2C(=O)N[C@H]3C(=O)N[C@H](C(=O)N[C@H](C(=O)O)c4cc(O)cc(O)c4-c4cc3ccc4O)[C@H](O)c3ccc(c(Cl)c3)Oc3cc2cc(c3O[C@@H]2O[C@H](CO)[C@@H](O)[C@H](O)[C@H]2O[C@H]2C[C@](C)(N)[C@H](O)[C@H](C)O2)Oc2ccc(cc2Cl)[C@H]1O`, “time above MIC” read 46% (microdialysis; pig, Danish Landrace, cortical bone; intravenous, 1000 mg over 100 min, 450 min dosing interval, with: 1.0 µg/mL MIC; relative to: dosing interval).
`O=c1cc(-c2ccc(O)c(-c3c(O)cc(O)c4c(=O)cc(-c5ccc(O)cc5)oc34)c2)oc2cc(O)cc(O)c12` gave a pKa of 7.61 (UV-vis pH titration; ethanol-water, 0.1 M NaCl; 25 µM, 25 °C, third pKa, o-carbonyl-phenol).
With `CCN1CC(=O)N[C@@H](CC(C)C)C(=O)N2CCC[C@@H]2C(=O)N(C)[C@@H](CC(C)C)C(=O)N[C@@H](C)C(=O)N(CC2CCOCC2)CC(=O)N[C@@H](Cc2ccccc2)C(=O)N2CCC[C@@H]2C(=O)N(C)[C@@H](CC(C)C)C(=O)N[C@@H](C)C1=O` the oral bioavailability was 2% (mouse; with: 1-aminobenzotriazole pretreatment).
For `O=C(O)c1ccc([18F])nc1`, the tumour SUV was 0.9 ± 0.1 (PET imaging; mouse, intracranial BT-12 glioblastoma xenograft; iv, dose not given).
With `CC(C)OC(=O)[C@H](CCC(=O)C=[N+]=[N-])NC(=O)OC(OC(=O)C(C)(C)C)c1ccccc1` (stereo partly drawn) the remaining compound was 88 ± 5% (human plasma; 10 µM, 60 min, 37 °C).
With `O=C(O)C(F)(F)c1cc(F)ccc1Nc1c(Cl)cccc1Cl` the remaining compound was 110 ± 6.4% (glucuronidation; human liver microsomes; 30 min, with: UDPGA).
For `COc1cc(C(=O)N2CCC3(CC2)CC(=O)c2c(cnn2C(C)C)C3)cc(-c2ccc(C(=O)O)cc2)n1`, “liver enzyme elevation” read 2.8 × ULN (measured: ALT; human; 15 mg twice daily, 7 days).
`CN(C)Cc1cc(OCCC[18F])ccc1Sc1ccccc1N` gave a tissue uptake of 0.45 ± 0.1 %ID/g (male Sprague-Dawley rats, control, remainder of brain; intravenous, dose not given, 60 min).
For `O=C(c1nc2n(n1)[C@H](c1ccccc1)C[C@@H]2F)C1CC1`, the concentration was 49.1 ng/mL (human, plasma; oral, 25 mg, 24 h, single dose, fasted, healthy volunteers).
`CC(C)=CCC[C@](C)(O[C@@H]1O[C@H](CO)[C@@H](O)[C@H](O)[C@H]1O)[C@H]1CC[C@]2(C)[C@@H]1[C@H](O)C[C@@H]1[C@@]3(C)CC[C@H](O)C(C)(C)[C@@H]3[C@@H](O[C@@H]3O[C@H](CO)[C@@H](O)[C@H](O)[C@H]3O)C[C@]12C` has a CL/F of 318 ± 130 mL/min/kg (Sprague Dawley rat, male, plasma; oral, 25 mg/kg, in frozen ginseng extract).
Under “highest soluble concentration”, `CC(C)(C)c1ccc(-c2nc3n(c(=O)c2C#N)CCCS3)cn1` is recorded as no less than 100 µM (oocyte extracellular recording solution; pH 7.4, 22 °C, DMSO below 0.1%; higher not tested).
The brain/serum ratio of `acyl ghrelin (human)` is reported as 5.11 µL/g (mouse, Ghsr knockout, cortex; intravenous, 10 min).
`O=C(O)COC[C@H]1CC[C@H](COC(=O)N(c2ccccc2)c2ccc(Cl)cc2)CC1` gave a concentration of 0.436 ng/mL (human, plasma; oral, 10 µg, 12 h, multiple doses, twice daily, steady state).
Under “geometric mean ratio AUCinf”, `[2H]C([2H])([2H])Oc1cc2c(cc1OC([2H])([2H])[2H])C1CC(=O)C(CC(C)C)CN1CC2` (stereo not drawn) is recorded as 105% (measured: β-HTBZ; human, fasted; oral, 15 mg single dose; relative to: tetrabenazine 25 mg fasted).
The half-life of `CCCCC1(CCCC)CN(c2ccccc2)c2cc(SC)c(OCC(=O)N[C@@H](C(=O)NCC(=O)O)c3ccccc3)cc2S(=O)(=O)C1` is reported as 2.22 h (LC-MS/MS; human, plasma; oral, 10 mg, single dose, before breakfast).
`CCOc1ccc(Cc2cc([C@]34OC[C@](CO)(O3)[C@@H](O)[C@H](O)[C@H]4O)ccc2Cl)cc1` gave a fu of 0.038 (equilibrium dialysis; human, type 2 diabetes, moderate renal impairment, plasma; oral, 15 mg, 6 h).
The terminal half-life of `Nc1nc(N)c2nc(CNc3ccc(C(=O)N[C@@H](CCC(=O)O)C(=O)O)cc3)cnc2n1` is reported as 2 to 2.74 h (male beagle dogs, plasma; intravenous and subcutaneous, range over both routes).
`CNc1[nH]c(=O)n(O)c(=O)c1C(=O)NCc1ccccc1` gave a microsomal CLint of 51 µL/min/mg (metabolic stability; human, liver microsomes).
Under “rectal body temperature”, `COc1cc(CNC(=O)CCCC/C=C/C(C)C)ccc1O` is recorded as 37.5 ± 0.1 °C (male Sprague-Dawley rat, myocardial infarction; iv, 0.3 mg/kg, 2 h reperfusion).
With `O=C(Cc1cccc(OC(F)(F)F)c1)Nc1ccc(CCCCc2nnc(NC(=O)Cc3ccccn3)s2)nn1` the Cmin was 126 ng/mL (human patients, plasma; oral, 250 mg three times daily fasted, cycle 1 day 15 steady state).
`CC(C)c1nc(CN(C)C(=O)N[C@H](C(=O)N[C@@H](Cc2ccccc2)C[C@H](O)[C@H](Cc2ccccc2)NC(=O)OCc2cncs2)C(C)C)cs1`: “AUC(0-t) geometric mean” 82500 ng·h/mL (healthy men, plasma; 600 mg single dose, with: amenamevir 400 mg).
`CCCC[C@@H]1NC(=O)[C@@H](NC(=O)[C@H](CCC(=O)O)NC(=O)CNC(=O)CN2CCN(CC(=O)O)CCN(CC(=O)O)CCN(CC(=O)O)CC2)CCCCNC(=O)C[C@@H](C(N)=O)NC(=O)[C@H](C(C)C)NC(=O)[C@@H]2CCCN2C(=O)[C@H](CCCNC(=N)N)NC(=O)CNC(=O)[C@H](Cc2c[nH]c3ccccc23)NC(=O)[C@H](CCCNC(=N)N)NC(=O)[C@@H](Cc2ccccc2)NC(=O)[C@H](Cc2c[nH]cn2)NC(=O)[C@H](CCC(=O)O)NC1=O` [indium-111 labelled] has a tissue uptake of 0.03 ± 0.02 %ID/g (C57 mice, B16/F10 lung metastatic melanoma, heart; intravenous, 0.037 MBq, 24 h).
For `CC(C)(O/N=C(\C(=O)N[C@H]1CN2CC(C(=O)NCCN3C(=O)c4cc(O)c(O)cc4C3=O)=C(C(=O)O)N2C1=O)c1nc(N)sc1Cl)C(=O)O`, the plasma concentration was 48700 ng/mL (CD-1 mouse, plasma; subcutaneous, 50 mg/kg, 0.167 h).
For `O=C1N=C(N2CCOCC2)CN1c1ccc(Cl)cc1`, the terminal half-life was 1.7 h (beagle dog, male; oral, 30 mg/kg, tablets).
Under “plasma Chol level”, `CC1(C)Oc2cc3oc(=O)ccc3cc2C[C@@H]1O` is recorded as 167 ± 28.3 mg/dL (male CD-1 mouse, plasma; oral gavage, 80 mg/kg daily, 4 weeks).
For `Cc1cc(Nc2ncc(Cl)c(Nc3ccccc3S(=O)(=O)C(C)C)n2)c(OC(C)C)cc1C1CCNCC1`, the Css,min was 881 nM (measured: total drug; patients, plasma; oral, 750 or 450 mg/day, 23.7 h, geometric mean).
`CCCC[C@H](NC(C)=O)C(=O)N[C@H]1CCC(=O)NC[C@@H](C(=O)N[C@@H](Cc2c[nH]c3ccccc23)C(N)=O)NC(=O)[C@H](CCCNC(=N)N)NC(=O)[C@@H](Cc2ccccc2)NC(=O)[C@H](Cc2c[nH]cn2)NC1=O` gave an AUC(0-last) of 1560 ng·h/mL (beagle dog, female, plasma; subcutaneous, 8.0 mg/kg daily, day 1).
For `Cc1ccnc2c1NC(=O)c1cccnc1N2C1CC1`, the AUC(0-8 h) was 1940 ± 57.2 ng·h/mL (olive baboon (Papio anubis), non-pregnant, serum; oral, 400 mg, tablet, single dose).
`CNC(=O)c1cc(C(=O)NC)cc(-c2ccc(O[C@H]3O[C@H](CO)[C@@H](O)[C@H](O)[C@@H]3O)cc2)c1`: “effective oral dose” 100 mg/kg (mouse, urine; oral, urine level above biofilm IC50).

Some of these lines once more:
With `CCN1CC(=O)N[C@@H](CC(C)C)C(=O)N2CCC[C@@H]2C(=O)N(C)[C@@H](CC(C)C)C(=O)N[C@@H](C)C(=O)N(CC2CCOCC2)CC(=O)N[C@@H](Cc2ccccc2)C(=O)N2CCC[C@@H]2C(=O)N(C)[C@@H](CC(C)C)C(=O)N[C@@H](C)C1=O` the oral bioavailability was 2% (mouse; with: 1-aminobenzotriazole pretreatment).
For `O=C(O)c1ccc([18F])nc1`, the tumour SUV was 0.9 ± 0.1 (PET imaging; mouse, intracranial BT-12 glioblastoma xenograft; iv, dose not given).
With `CC(C)OC(=O)[C@H](CCC(=O)C=[N+]=[N-])NC(=O)OC(OC(=O)C(C)(C)C)c1ccccc1` (stereo partly drawn) the remaining compound was 88 ± 5% (human plasma; 10 µM, 60 min, 37 °C).
